Experimental data gathered from unrelated publications.
Numbered parts are unrelated; each lists some results of a single study. Positions count from the first letter of the parent shown.

Block 1 — technique: protein binding microarray; molecule type: double-stranded DNA, one strand shown; sample: in vitro; concentration: not given; relative to: not given; direction: higher = stronger binding
Target: Histone acetyltransferase KAT6A, winged helix 2, GST fusion (KAT6A, Homo sapiens, UniProt Q92794, residues 85-181)
Setting: 8-mer, flanks averaged, mean of 2 arrays, mostly near background
Target sequence (chain): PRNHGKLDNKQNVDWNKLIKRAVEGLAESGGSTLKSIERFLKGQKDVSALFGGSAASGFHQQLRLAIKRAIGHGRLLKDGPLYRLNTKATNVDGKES
| Sequence | E-score |
| --- | --- |
| ATGCGCGA | 0.133 |
| ATCTAATA | 0.0237 |
| ACATATTC | -0.107 |
| CCAATAGG | -0.102 |
| AGTTTACA | -0.0234 |
| CTGCACTC | 0.0423 |
| ATTGATTG | -0.024 |
| AGTACCTA | -0.104 |
| AGGACGAC | -0.0982 |
| GGACGAAA | 0.13 |
| CATGAGGA | -0.166 |
| CCATGGGA | -0.137 |
| CTAATCGC | -0.00513 |
| CTGCGGGC | 0.174 |
| CCGATAAG | -0.0733 |
| GAATATCC | 0.0691 |
| GAGGCTAC | -0.0312 |
| TATATAAA | 0.199 |
| AAGGATCG | -0.138 |
| CCCAGGTA | -0.272 |
| ACCGGCGA | 0.146 |
| CGTTTCAG | -0.0115 |
| TTGCCCAA | 0.122 |
| AGAGCGGA | -0.0253 |
| GACGCGGA | 0.203 |

Block 2 — technique: protein-binding microarray; molecule type: double-stranded DNA, one strand shown; sample: in vitro; concentration: not given; direction: higher = stronger binding
Target: Transcription factor SOX-2, HMG box (SOX2, Homo sapiens, UniProt P48431, residues 19-118)
Chain of UniProt P48431 (19-118, looked up): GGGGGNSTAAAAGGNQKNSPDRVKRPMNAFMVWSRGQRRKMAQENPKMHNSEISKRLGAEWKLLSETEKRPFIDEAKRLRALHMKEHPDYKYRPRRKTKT
Setting: k-mer, scored over probes, only values ≥0.25
| Sequence | E-score |
| --- | --- |
| ATTCAAT | 0.456 |
| CAATGCG | 0.287 |
| GCATTCA | 0.372 |
| AAGAATG | 0.351 |
| ATTATGG | 0.363 |
| GAATGAA | 0.327 |
| ACAATGG | 0.471 |
| TAATATA | 0.287 |
| ATTAACA | 0.262 |
| TAGAATA | 0.339 |
| AACTATT | 0.311 |
| CATTCAC | 0.392 |
| TACAATA | 0.423 |
| TAATACA | 0.294 |
| ATTATAG | 0.269 |

Block 3 — technique: RNA Bind-n-Seq; molecule type: RNA; sample: in vitro; concentration: not given; relative to: input RNA pool; direction: higher = stronger binding
Target: RING finger protein unkempt homolog, zinc fingers 1-6, GST-SBP tag (UNK, Homo sapiens, UniProt Q9C0B0, residues 30-357)
Setting: RNA with constant flanks, human and mouse sites, ends assumed
Construct (chain): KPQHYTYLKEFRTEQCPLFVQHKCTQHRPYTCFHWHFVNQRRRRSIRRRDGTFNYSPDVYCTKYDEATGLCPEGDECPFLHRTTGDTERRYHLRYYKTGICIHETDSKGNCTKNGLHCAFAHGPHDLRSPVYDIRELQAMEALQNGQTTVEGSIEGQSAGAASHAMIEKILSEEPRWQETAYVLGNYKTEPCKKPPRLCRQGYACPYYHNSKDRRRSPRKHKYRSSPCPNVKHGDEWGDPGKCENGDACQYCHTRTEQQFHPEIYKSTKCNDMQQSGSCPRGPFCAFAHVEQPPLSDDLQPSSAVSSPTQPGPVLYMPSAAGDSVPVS
| Sequence | bound/input enrichment |
| --- | --- |
| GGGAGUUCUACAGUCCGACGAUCCCUCCGCCCUCACCGUUGCCAUUUCCGACGCAAGCUAUCCUUCCUCCGGCACCUUCCAGCUACUUCUCUCAUCCAACAAUCAGAUAUCCUCCUCACCUGAAUCCUCAGGAUACUCUGAAGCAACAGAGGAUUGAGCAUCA | 0.454 ratio |
| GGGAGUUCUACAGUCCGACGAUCCAUGUCAUGCAUUUUUCUAAAUGGGCAGUUUCCAGUGGCAGCAGUACAGCAUUACUUUAUAGCAAACGACUGAUUACAUACCGGUUACGGCACCUCCUUCGUGCAAGGUGUGAUGCAUCCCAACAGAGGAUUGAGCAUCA | 0.258 ratio |
| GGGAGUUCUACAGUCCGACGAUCCCAUCAGUAUAUUAUAGUCAGUCACCUGCAUAUAACUCCCAGUAUCUUCUCAGACCAGCUGCUAAUGUAACUCCCACCAAGGGUCCAGUUUAUGGCAUGAAUAGGCUUCCACCCCAACAACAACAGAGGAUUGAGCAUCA | 0.844 ratio |
| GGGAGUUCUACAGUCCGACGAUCGUCAUGCCGGGGAUAGUGGAGCUGCCAACUCUGGAAGAGCUGAAAGUGGAGGAGGUGAAAGUCAGCUCAGCUGUGCUUAAAGCUGCCGCCCAUCACUAUGGGGCUCAGUGCGAUAAAACCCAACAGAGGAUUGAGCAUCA | 0.0852 ratio |
| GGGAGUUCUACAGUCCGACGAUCGAAGAGAAUAAACUCACCUAUACACCCAUUUUUAAUGAAUAUAUCUCCCUGGUAGAGAAGUACAUUGAAGAGCAGUUGCUGGAGCGUAUCCCAGGCUUCAACAUGGCGGCCUUCACAACCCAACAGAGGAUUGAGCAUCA | 2.72 ratio |
| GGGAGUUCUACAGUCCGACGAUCAUGAUCUGGGACACCAGGUGUAACAAAAAAGAUGGAUUUUAUAGACAAGUGAAUCAAAUCAGUGGAGCUCACAAUACUGCAGACAAGCAAACCCCUUCAAAGCCCAAGAAGAAACAAAAUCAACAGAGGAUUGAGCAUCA | 0.568 ratio |
| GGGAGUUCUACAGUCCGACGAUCGCGCACGCGCGCCCCGCCCAGCCUGCUUUCCCUCCGCGCCCUCCCCUCUCCUUUCUCCCUCUCAGAACCUUCCUGCCGUCGCGUUUGCACCUCGCUGCUCCAGCCUCUGGGGCGCAUUCCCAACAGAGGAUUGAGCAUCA | 0.384 ratio |
| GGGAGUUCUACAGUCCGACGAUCCAUGUCCAGCUUCUCUAGGGCGCCCCAGCAAUGGGCCACUUUUGCUCGAAUGUGGUAUCUCUUAGAUGGCAAAAUGCAGCCCCCUGGCAAACUUGCGGUUAUAGCAUCCAACAAACUGCACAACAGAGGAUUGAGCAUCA | 0.218 ratio |
| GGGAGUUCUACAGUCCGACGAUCCAUUUGAAGAGGAACAUUGGUGUUACAGCUGUGGCCUUUAAUAAGGAACUUGAUCCUGUACAGAAACUCUUCGUGGACAAGAUAAGAGAGUACAAAUCAAAGCGACAGGCAUCUGGAGGACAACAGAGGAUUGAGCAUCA | 0.445 ratio |
| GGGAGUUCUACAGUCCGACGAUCUCCGUGCUUGUGGUGAAGGCGAGGCAGCCAAAGCCUUUCUUUGCUGCCGGAAAUACAUUUGAGAUGACUUGCAAAGUAUCUUCCAAGAAUAUUAAGUCGCCACGCUACUCUGUUCUCAUCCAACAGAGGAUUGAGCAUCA | 0.0979 ratio |
| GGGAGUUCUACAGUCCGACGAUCAGAGCCCCGCGCCCGCUGUAAUUAUUUUCUAUUUUUGUAAACUUGUUGCUUUUUGAUAUGAUUUUCUUGCCUGAGUGUUGGCCGGAGGGACUGCUGGCCCGGCCUCCCUUCCGUCCAGGCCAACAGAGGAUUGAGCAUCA | 3.5 ratio |

Block 4 — technique: DHFR PCA, deep sequencing; sample: yeast; added: (+)-ABA 0.0091 µM; relative to: wild-type fitted maximum; direction: higher = stronger binding
Target: ABI1, truncated, D143A, DHFR fusion (Arabidopsis thaliana)
Setting: methotrexate growth selection, single substitutions
Starting sequence: PYL1, truncated, DHFR fusion (Arabidopsis thaliana); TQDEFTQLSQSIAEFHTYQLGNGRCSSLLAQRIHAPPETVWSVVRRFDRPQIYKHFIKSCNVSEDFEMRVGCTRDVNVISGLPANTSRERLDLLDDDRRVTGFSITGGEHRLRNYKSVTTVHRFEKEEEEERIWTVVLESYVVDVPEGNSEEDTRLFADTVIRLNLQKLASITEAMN; partner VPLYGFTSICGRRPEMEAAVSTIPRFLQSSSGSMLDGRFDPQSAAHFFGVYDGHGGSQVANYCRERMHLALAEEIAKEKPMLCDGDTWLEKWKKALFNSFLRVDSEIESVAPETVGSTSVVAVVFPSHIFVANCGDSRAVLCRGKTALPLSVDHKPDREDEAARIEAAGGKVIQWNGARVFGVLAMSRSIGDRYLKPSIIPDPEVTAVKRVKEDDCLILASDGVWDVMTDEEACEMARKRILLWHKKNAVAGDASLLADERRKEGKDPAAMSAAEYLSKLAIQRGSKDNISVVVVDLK
| Change | relative binding score |
| --- | --- |
| R99D | -7.91% |
| L112V | 2.67% |
| H55K | 12.3% |
| L164E | -3.89% |
| T120A | -4.75% |
| S140W | 6.19% |
| A35G | -2.12% |
| R132V | 24.1% |
| E125C | 34.8% |
| L156W | 0.882% |
| P83M | 5.51% |
| T39F | 2.74% |
| E147C | -0.0164% |
| D3W | 20.2% |
| T86K | 10.9% |
| A175L | 5.13% |
| I105Y | -1.97% |
| L82F | 78% |
| C72F | 0.534% |
| V70M | 3.94% |
| P37C | -1.58% |
| H122W | 1.41% |
| L8Y | 25.6% |
| E130H | 39.9% |
| A30L | 12.1% |

Block 5 — technique: universal PBM; molecule type: double-stranded DNA, one strand shown; sample: in vitro; concentration: not given; direction: higher = stronger binding
Target: Sal-like protein 4, full length isoform B (SALL4, Homo sapiens, UniProt Q9UJQ4-2, residues 1-616)
Setting: 8-mer, flanks averaged, mean of replicates
| Sequence | E-score |
| --- | --- |
| GATGACGC | -0.143 |
| CTATAGGA | 0.0961 |
| ATTCCGGA | 0.0956 |
| AAGAACGC | -0.0117 |
| AGGATTAG | 0.0987 |
| GTAAGGGA | -0.0711 |
| CCGAACTA | -0.0949 |
| ATCCACGC | -0.119 |
| AGTGTCCG | -0.112 |
| CCAATTAA | 0.173 |
| AGGGCCCC | -0.344 |
| GACGGGGA | -0.155 |
| AACCAATT | 0.189 |
| CATAGAGG | 0.0372 |
| CCTTTGCA | -0.0569 |
| CATTTAAA | 0.149 |
| CTAGATGC | -0.0259 |
| ATTTCGGG | 0.099 |
| ACAGCAGT | -0.0566 |
| GTCAGGAC | -0.215 |
| CGGAGGGC | -0.322 |

For quick reference, copied from above (block 5):
| Sequence | E-score |
| --- | --- |
| GATGACGC | -0.143 |
| CTATAGGA | 0.0961 |
| ATTCCGGA | 0.0956 |
| AAGAACGC | -0.0117 |
| AGGATTAG | 0.0987 |
| GTAAGGGA | -0.0711 |
